Results from different studies.
Parts stem from different laboratories: compare values within a part only. Changes are numbered by the printed parent chain.

Study 1 — technique: Sort-seq; refers to: YFP reporter; medium: E. coli; notes: PhoQ-PhoP variant library; together with: 10 µM Mg2+; relative to: high Mg2+ state; direction: higher = stronger signaling
Molecule: PhoQ, residues 284 288 289 292 302 303 SSCLAV
target | fold induction
PhoP, residues 12 14 15 18 19 TPWTL (Escherichia coli, UniProt P23836) | 1.84
PhoP, residues 12 14 15 18 19 NFFVT (Escherichia coli, UniProt P23836) | 14.8
PhoP, residues 12 14 15 18 19 VGHWL (Escherichia coli, UniProt P23836) | 7.82
PhoP, residues 12 14 15 18 19 LHHYF (Escherichia coli, UniProt P23836) | 6.93

Study 2 — target: CCND2, cyclin fold, Cln2 fusion (human); technique: yeast growth competition, sequencing; medium: yeast; notes: weak parent motif; relative to: not given; direction: higher = stronger binding
Starting sequence: PLK5 docking peptide (human); IFRKVGQRLLTQC
Variant | normalised enrichment score
L9A | 0.0373
C13A | -0.521
I1A | -0.202
V5A | -0.0187
T11A | 0.0666
F2A | -0.292

Study 3 — technique: aptamer microarray, sandwich; form: DNA with 2'F-ANA; medium: in vitro; tested at: 200 nM; together with: Cy3 exosite-II aptamer, 400 nM; direction: higher = stronger binding; sequence: GGTTGGTGTGGTTGG
Target: Prothrombin, mature alpha-thrombin (F2, Homo sapiens, UniProt P00734)
Notes: whole 15-mer aptamer, many near background
Modification | mean fluorescence intensity [a.u.]
2'F-ANA at 2 4 8 9 11 12 14 | 115
2'F-ANA at 1 2 4 5 7 9 11 12 13 | 69
2'F-ANA at 4 7 8 9 11 14 15 | 93.5
2'F-ANA at 3 4 5 8 10 11 | 56.6
2'F-ANA at 3 4 5 6 7 8 9 11 13 14 | 52.8
2'F-ANA at 4 6 7 9 11 15 | 169
2'F-ANA at 4 5 7 8 11 14 15 | 45.1
2'F-ANA at 1 2 4 5 6 9 14 15 | 47.6
2'F-ANA at 2 3 5 6 7 12 | 229
2'F-ANA at 1 3 6 8 9 10 15 | 82.7
2'F-ANA at 2 3 5 6 9 10 11 15 | 50.2
2'F-ANA at 1 3 8 9 11 12 15 | 496
2'F-ANA at 1 2 3 5 7 8 9 11 15 | 59.6
2'F-ANA at 2 3 8 11 12 13 15 | 835
2'F-ANA at 4 8 9 11 12 13 14 15 | 89.1
2'F-ANA at 2 3 4 5 6 8 15 | 99.4
2'F-ANA at 5 6 8 9 10 11 13 | 48.7
2'F-ANA at 1 3 6 7 8 9 10 12 14 | 67.3
2'F-ANA at 2 4 5 7 8 9 13 | 55.3
2'F-ANA at 1 2 4 6 8 10 13 | 55.1

Study 4 — technique: protein binding microarray; form: double-stranded DNA, one strand shown; medium: in vitro; tested at: not given; relative to: not given; direction: higher = stronger binding
Target: Histone acetyltransferase KAT6A, winged helix 1, GST fusion (KAT6A, Homo sapiens, UniProt Q92794, residues 1-85)
Notes: 8-mer, flanks averaged, mean of 2 arrays, mostly near background
Construct (chain): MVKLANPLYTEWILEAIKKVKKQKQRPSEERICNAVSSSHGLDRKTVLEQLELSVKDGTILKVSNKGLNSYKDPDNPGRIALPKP
Sequence | E-score
CCCAGAAC | -0.175
ACGTCCTC | -0.0421
AAACGCGT | 0.251
CAGGCCCC | -0.101
AACAACAG | -0.0579
AGCTTGGG | -0.178
CCCCGTGC | 0.303
TCAAACAA | -0.077
ATCTCGAG | -0.233
AAACTTAT | -0.127
AGGATGAC | -0.0459
AAGGTGCC | 0.0507
CCGAGTTC | 0.036

Some of these lines once more (study 3):
Modification | mean fluorescence intensity [a.u.]
2'F-ANA at 2 4 8 9 11 12 14 | 115
2'F-ANA at 4 8 9 11 12 13 14 15 | 89.1
2'F-ANA at 5 6 8 9 10 11 13 | 48.7
2'F-ANA at 3 4 5 8 10 11 | 56.6
2'F-ANA at 2 3 5 6 7 12 | 229
2'F-ANA at 3 4 5 6 7 8 9 11 13 14 | 52.8
